# Results of several laboratories.
# Protocols differ between the studies behind these lines. “And” joins repeats or separate records; there may be more than shown. ± gives the spread as reported.
Compound,assay,system,conditions,scale,quantity,value
CNC(=O)c1ccc(-c2cnc3ncc(Cc4ccc5ncccc5c4)n3n2)cc1F,"CTCAE v4.0, any causality",human cancer patients,"oral, dose not given, dose escalation",,alkaline phosphatase increase incidence (all grades),13%
C[C@@H]1CN(c2c(F)c(N)c3c(=O)c(C(=O)O)cn(C4CC4)c3c2F)C[C@H](C)N1,,"male Hartley guinea pigs, anaesthetized","intravenous, 10 mg/kg group, baseline before infusion",,mean blood pressure,37 ± 0.2 mmHg
C[C@@H]1COCCN1c1cc(C2([S@](C)(=N)=O)CC2)nc(-c2cc[nH]c3nccc2-3)n1,,Japanese advanced solid tumour patients,"oral, 240 mg twice daily, any grade",,Anemia incidence,50%
COc1nc(-c2cc(C)c(N[C@@H](C)c3cc(F)cc(F)c3)nn2)ccc1-n1cnc(C)c1,,"cynomolgus monkey, male, plasma","intravenous, 1 mg/kg",,Vss,0.856 L/kg
CC(C)n1c(Nc2cccnc2)nc2cnc(Nc3ccc(N4CCN(C)CC4)cc3)nc21,item: Rash,healthy male subjects,"oral, 150 mg, with: rifampin",,adverse event incidence,0%
c1ccc(-c2nc(N3CCC(c4ccccn4)C3)c3ccccc3n2)nc1 (stereo not drawn),,"female Balb/c mice, plasma","intravenous, 2 mg/kg, mean, with: ABT 2 h prior",,C0,2580 ng/mL
Cc1c(-c2ccc(N3CCc4cccc(C(=O)Nc5nc6ccccc6s5)c4C3)nc2C(=O)O)cnn1CC12CC3(C)CC(C)(C1)CC(OCCNCC[C@H](O)CO)(C3)C2,,"beagle dog, male, anaesthetised","intravenous infusion, 0.3 mg/kg/min, 30 min",reference: vehicle,QTcV interval change,10 ms
CO[C@H]1C[C@@H]2CC[C@@H](C)[C@@](O)(O2)C(=O)C(=O)N2CCCC[C@H]2C(=O)O[C@H]([C@H](C)C[C@@H]2CC[C@@H](OC(=O)NCCOCCOCCOCCOCCOCCOCCOCCOCCC(=O)N3CCc4cc(Cn5nc(-c6ccc7oc(N)nc7c6)c6c(N)ncnc65)ccc4C3)[C@H](OC)C2)C[C@@H](O)[C@H](C)/C=C(\C)[C@@H](O)[C@@H](OC)C(=O)[C@H](C)C[C@H](C)/C=C/C=C/C=C/1C,,"mice, plasma","intraperitoneal, 3 mg/kg, weekly dosing",,unbound AUClast,53 to 210 nM·h
O=C(Nc1nc2cccc(-c3ccc(CN4CCS(=O)(=O)CC4)cc3)n2n1)C1CC1,item: ankle fracture,human rheumatoid arthritis patients,"oral, 75 mg once daily, 4 weeks, regardless of relatedness",,treatment-emergent adverse events,0%
O=C(CCCN1CCC(O)(c2ccc(Cl)cc2)CC1)c1ccc(F)cc1,,"male Hartley guinea pigs, anaesthetized","intravenous, 0.01 mg/kg over 10 min, after infusion",,mean blood pressure,36 ± 0.1 mmHg
CC(C)(C)n1ncc(OCc2ccc(COCC[18F])cc2)c(Cl)c1=O,dynamic PET,healthy C57BL/6J mouse,"iv, dose not given",,maximum myocardial uptake,6.4 ± 0.4 SUV
O=C(Cn1c(NCCO)nc2ccccc21)c1cccc([N+](=O)[O-])c1,,,,,pKa,6.32
Nc1ncnc2c1ncn2[C@@H]1O[C@H](CO)C[C@H]1O,LDH release,human ESC-derived lung organoids,"concentration not given, 4 days",,cytotoxicity,20.7% and 17.2% and 13.2%
Cn1c(C(F)(F)F)cc(=O)n(-c2cc(Oc3cccnc3OCC(=O)O)c(Cl)cc2F)c1=O,,"beagle dog, male, plasma","oral capsule, 1000 mg/kg/day epyrifenacil, day 1, 90-day study",,Tmax,5 h
O=C(Nc1cnccc1Cl)N1CCN(Cc2ccc3c(c2)OC(F)(F)O3)CC1,,"healthy young men, plasma","oral, 25 mg once daily, day 10, dosing interval 24 h",,AUC(0-tau),2200 ng·h/mL
CC(C)Nc1ccnc(Nc2cccc(-c3cccnc3)c2)n1,,MDCKII-WT cells,"10 µM, pH 7.4",,Papp (A to B),75 ± 39.1 ×10⁻⁶ cm/s
CNCCOC12CC3(C)CC(C)(CC(Cn4ncc(-c5ccc(N6CCc7cccc(C(=O)Nc8nc9ccccc9s8)c7C6)nc5C(=O)O)c4C)(C3)C1)C2,,"beagle dog, male, anaesthetised","intravenous bolus, 0.03 mg/kg, 120 min",reference: baseline,QTcV interval change,10 ms
Cc1ccc(Sc2ccccc2N2CCNCC2)c(C)c1,,healthy adult men,"oral, 10 mg single dose, treatment-emergent adverse events",,vomiting incidence,0%
CC[C@H](C)[C@H](NC(=O)CN)C(=O)N[C@@H](CC(C)C)C(=O)N[C@@H](CC(=O)O)C(=O)N[C@@H](C)C(=O)N[C@H](C(=O)N[C@@H](CCCCN)C(=O)N[C@@H](C)C(=O)N[C@H](C(=O)N[C@@H](C)C(=O)N[C@@H](CCCCN)C(=O)N[C@@H](C)C(=O)N[C@H](C(=O)N[C@@H](CCCCN)C(=O)N[C@@H](C)C(=O)N[C@@H](CCCCN)C(=O)N[C@@H](C)C(=O)NCC(N)=O)[C@@H](C)CC)[C@@H](C)CC)[C@@H](C)CC,circular dichroism at 222 nm,10 mM SDS,"100 µM, pH 4.0",,mean residue ellipticity,-5930 deg cm2/dmol
CN(CC#N)C(=O)C[C@H](Nc1nc2ccccc2[nH]1)c1cccc(C(F)(F)F)c1,,human,"intravenous infusion, 1.5 mg/kg, 1 mg/mL formulation",,apparent volume of distribution,70.6 ± 12.8 L
Cc1cc([C@H]2C[C@H]3[C@@H](CF)SC(N)=N[C@@]3(c3ccc(F)cc3F)CO2)on1,,"male 129/SVE wild-type mouse, brain","subcutaneous, 100 mg/kg, 14 h",,brain concentration,92 nM
O=C1Cc2cc(CCN3CCN(c4nsc5ccccc45)CC3)c(Cl)cc2N1,,"male Hartley guinea pigs, anaesthetized","intravenous, 1 mg/kg over 10 min, after infusion",,mean blood pressure,23 ± 0.3 mmHg
O=C(O)CNC(=O)c1nc(Cl)c2ccccc2c1O,,,,,pKa (acidic),3.1
Cc1c2oc3c(C)ccc(C(=O)N[C@@H]4C(=O)N[C@H](C(C)C)C(=O)N5CCC[C@H]5C(=O)N(C)CC(=O)N(C)[C@@H](C(C)C)C(=O)O[C@@H]4C)c3nc-2c(C(=O)N[C@@H]2C(=O)N[C@H](C(C)C)C(=O)N3CCC[C@H]3C(=O)N(C)CC(=O)N(C)[C@@H](C(C)C)C(=O)O[C@@H]2C)c(N)c1=O,LC-MS,"children with cancer, plasma","dose not given, 26 h",,maximum plasma concentration,4.3 µg/L
CCO[C@H]1CCN(Cc2c(OC)cc(C)c3[nH]ccc23)[C@H](c2ccc(C(=O)O)cc2)C1,,"human moderate hepatic impairment, plasma","oral, 200 mg single dose, median",,unbound Cmax,1050 ng/mL
CN(C)C(=N)N=C(N)N,item: toothache,healthy men,"oral, dose not given, 8 days, treatment-emergent, crossover trial",,subjects with adverse event,0%
O=C(O)CNC(=O)c1ncc(-c2cccc(Cl)c2)cc1O,,,,,pKa (acidic),3.2
COc1ccc(Br)c(/C=N/NC(=O)COc2ccc(-c3ccccc3)cc2)c1,,sheep erythrocytes,"1 h, pH 7.5",,maximum haemolysis,4.1%
CCCCC[C@H](O)CC[C@@H]1[C@H]2Cc3cccc(OCC(=O)O)c3C[C@H]2C[C@H]1O,LC-MS/MS,"male Japanese PAH patients, plasma","inhaled, 54 µg",,geometric mean Cmax,0.7 ng/mL
Cc1c(C(=O)O)ccc2c3n(nc12)[C@@H]1[C@H](C3)N(CC2CC2)[C@@]2(C(=O)Nc3cc(Cl)ccc32)[C@H]1c1cccc(Cl)c1F,"phase Ia trial, item: Neutropenia",cancer patients,"oral, dose not given",,adverse event incidence,24%
CC(C)(C(=O)N1CCOc2c(C#N)cncc2C1)C(F)F,,"human, both sexes","oral, 20 mg single dose",,subjects with keratitis TEAE,0%
Oc1ccc(/C=C/c2cc(O)cc(O)c2)cc1,,"rat, azoxymethane-injected, blood at sacrifice",100 mg/kg,,leucine aminopeptidase,44 IU/L and 40 IU/L and 45 IU/L
COc1cc2c3c(n(CCCN4CCOCC4)c(=O)c2cc1OC)-c1cc2c(cc1C3=O)OCO2,,"beagle dog, male, plasma","intravenous infusion, 50 mg/m^2, 1 h infusion, vehicle 2",,CL,42.4 ± 26 L/h/m²
CCC1(C)CC(OC(=O)CSc2nnc(N)[nH]2)C2(C)C(C)CCC3(CCC(=O)C32)C(C)C1O (stereo not drawn),,sheep erythrocytes,"1 h, pH 7.5",,maximum haemolysis,3.07%
FC(F)(F)c1ccc(CNc2ccc(Cc3c[nH]c4ncc(Cl)cc34)cn2)cn1,item: Pruritus,"patients with advanced solid tumours, non-TGCT cohort","oral, 1000 mg/day, grade 3 or higher",,treatment-related adverse events,0%
COc1cc2[nH]c(C)c(-c3ccc(S(=O)(=O)N(C)C)cc3)c(=O)c2cc1Cl,,PAMPA,pH 7.4,,Papp,119 ×10⁻⁶ cm/s
CC(C)=CCC1=C(O)C(=O)c2ccccc2C1=O,cyclic voltammetry,dichloromethane,"0.1 mM, with: 0.1 M Bu4NPF6",reference: Ag/AgCl in saturated KOH,cathodic peak potential,-1.31 V
CCN1/C(=C/C(C)=O)Sc2ccc(F)cc21,,cynomolgus monkey,"oral, 10 mg/kg, 4 h post-dose",,QRS duration,36 ± 1 ms
Cc1cc(Nc2cc3ncccc3c(N[C@@H]3C[C@H]4CC[C@@H](C3)N4CCC#N)n2)n[nH]1,,healthy human subjects,"oral, 10 mg, 14 days, multiple ascending dose",,pruritus incidence,0%
C[C@@H](N)C1CCN(S(=O)(=O)c2cccc3cnccc23)CC1,item: Epistaxis,healthy volunteers,"150 mg, fed",,TEAE incidence,10%
CC(C)[C@@H](CS(=O)(=O)C(C)C)N1C(=O)[C@@](C)(CC(=O)O)C[C@H](c2cccc(Cl)c2)[C@H]1c1ccc(Cl)cc1,,"FVB mice Abcb1a/b Abcg2 knockout, brain","oral, 20 mg/kg",,AUC(0-inf),2450 ± 263 ng·h/mL
O=C(CS(=O)(=O)O)Nc1ccc(N2CCOCC2)c(Br)c1,,"CD-1 mice, whole blood","intravenous, 2 mg/kg",,C0,8.09 µM
Cc1nc2cccc(OCC(C)(C)C(=O)NC(C)C)c2c(N)c1C(=O)O,,"male Swiss albino CD-1 mouse, bone marrow","oral, 500 mg/kg, 48 h",,micronucleated PCE per 14000 PCE,8
COc1ccc2c(c1)CN(C(=O)CCN1CCC(Cc3ccccc3)CC1)CC[S@@+]2[O-],telemetry,conscious male beagle dogs,"intravenous, 4 mg/kg, 4 h",,systolic blood pressure,133 ± 13 mmHg
CN(C(=O)n1cnc(-c2cccnc2)c1)[C@H]1CC[C@H](O)CC1,,"rat, cerebellum","oral, 10 mg/kg single dose, 24 h",,tissue concentration,13.3 ± 0.8 ng/g
CCCCCCOC(=O)NC(=N)c1ccc(NCc2nc3cc(C(=O)N(CCC(=O)OCC)c4ccccn4)ccc3n2C)cc1,,human,"oral, 75 mg, compound alone",,participants with TEAE dry lips,4.2%
C[C@@H](O)CCOC(=O)C[C@@H](C)O,item: systolic blood pressure,human,"oral, dose not given, 60 min post-dose vs pre-dose",reference: pre-dose,mean change,-7 mmHg
COc1ccc(C[C@@H](C)[C@@H](C)Cc2ccc(OC)c(OC)c2)cc1OC,,"beagle dog female, plasma","oral, 300 mg/kg/day, day 1, median",,Tmax,2 h
Cc1cc(-c2nccc3c2ccn3CC(=O)Nc2ccc(-c3cnccn3)cn2)ccn1,,healthy human volunteers,"oral, 20 mg single dose, single ascending dose",,application site scab incidence,0%
CCC(CC)C(=O)Oc1cccc(C(O)CCN)c1.O=CO (stereo not drawn),scotopic ERG,BALB/cJ mice,"intraperitoneal, 10 mg/kg, 2 h dark adaptation, with: 10,000 lx photobleach, 10 min",,ERG a-wave amplitude,15 µV and 42 µV and 50 µV and 51 µV and 27 µV
N#Cc1ccc2c(c1)[C@H]1CCCN(C(=O)c3ccc4[nH]cnc4c3)[C@H]1C2,,human females,"10 mg, day 7",,total testosterone level,1 nmol/L
COc1cc(/C=C/C(=O)CC(=O)/C=C/c2ccc(O)c(OC)c2)ccc1O,MTT,"PC-12, rat","30 µM, 10% FBS",,reduction of viability,21.8%
O=C(N/N=C/c1ccccc1O)c1ccncc1,,rat plasma,"0.24 µM, 12 h, 5 °C, post-preparative",,stability,94.7%
Cn1cncc1[C@@](N)(c1ccc(Cl)cc1)c1ccc2c(c1)c(-c1cccc(Cl)c1)cc(=O)n2C,,"human, plasma","300 mg/m^2/dose, initial cohort, mean",reference: AUC0-inf at 200 mg/m^2/dose,AUC0-inf ratio,3.5 fold
COc1ccc([C@@H](O)c2cc(-c3ncnc4cc(N5CCOCC5)ccc34)c(F)cc2Cl)nn1,,locally advanced rectal cancer patients,"100 mg, with: capecitabine and radiotherapy",,investigations TEAE,67%
CN1C(=O)[C@@H](NC(=O)c2nnc(Cc3ccccc3)[nH]2)COc2cccnc21,phase I multiple ascending dose,"human, male and female","oral, 100 mg, 14 days",,nasopharyngitis incidence,12.5%
O=C(O)CCC(=O)O.[2H]C([2H])([2H])Oc1cc(C)c2[nH]ccc2c1CN1CC[C@@H](C2CC2)C[C@H]1c1ccc(C(=O)O)cc1,,healthy Chinese subjects,"300 mg once daily, multiple ascending dose",,subjects with drug-related TEAE,25%
